{"data": "Measurements from different studies", "note": "Compare with care: the assays were run in different laboratories. Numbers after ± are the reported error."}
{"assay": "HPLC", "test system": "phosphate buffer", "conditions": "1 day, pH 7, 37 °C", "endpoint": "degradation", "value": "~10%", "Compound": "CC(=O)Oc1ccccc1C(=O)[O][Pt]([NH2])([NH2])([Cl])([Cl])[O]C(=O)CCCc1ccccc1"}
{"assay": "PAGE band density", "test system": "whole saliva supernatant G1, diluted 1:10", "conditions": "100 µg/mL, 6 h, 37 °C", "endpoint": "degradation", "value": "58.2%", "Compound": "C[C@H](NC(=O)[C@H](Cc1cnc[nH]1)NC(=O)[C@H](CO)NC(=O)[C@@H](N)CC(=O)O)C(=O)N[C@@H](CCCCN)C(=O)N[C@@H](CCCNC(=N)N)C(=O)N[C@@H](Cc1cnc[nH]1)C(=O)N[C@@H](Cc1cnc[nH]1)C(=O)NCC(=O)N[C@@H](Cc1ccc(O)cc1)C(=O)N[C@@H](CCCCN)C(=O)N[C@@H](CCCNC(=N)N)C(=O)N[C@@H](CCCCN)C(=O)N[C@@H](Cc1ccccc1)C(=O)N[C@@H](Cc1cnc[nH]1)C(=O)N[C@@H](CCC(=O)O)C(=O)N[C@@H](CCCCN)C(=O)N[C@@H](Cc1cnc[nH]1)C(=O)N[C@@H](Cc1cnc[nH]1)C(=O)N[C@@H](CO)C(=O)N[C@@H](Cc1cnc[nH]1)C(=O)N[C@@H](CCCNC(=N)N)C(=O)NCC(=O)N[C@@H](Cc1ccc(O)cc1)C(=O)O"}
{"test system": "simulated gastric fluid", "conditions": "500 µM, 2 h, pH 1.2, 37 °C", "endpoint": "degradation", "value": "54%", "Compound": "CC1=C(C=O)C(C)(C)CC=C1"}
{"test system": "rat liver homogenate 30%", "conditions": "15 min, 37 °C", "endpoint": "degradation", "value": "≤ 44.9%", "Compound": "COc1c2c(cc3oc(C)cc(=O)c13)OC(C(C)(C)O)C2 (stereo not drawn)"}
{"assay": "HPLC", "test system": "human serum", "endpoint": "degradation time", "value": "≤ 2 h", "Compound": "CC(C)C[C@H](NC(=O)[C@@H](NC(=O)[C@H](CCCCN)NC(=O)[C@@H](Cc1c[nH]c2ccccc12)NC(=O)[C@H](Cc1ccccc1)NC(=O)[C@H](CSCC(N)=O)NC(=O)CNC(=O)[C@@H](N)Cc1ccccc1)[C@@H](C)O)C(=O)O"}
{"conditions": "physiological pH and temperature", "endpoint": "degradation half-life", "value": "≤ 1 weeks", "Compound": "CC[C@H](C)[C@@H]1NC(=O)[C@H](CCCNC(=N)N)NC(=O)[C@H](CC(=O)O)NC(=O)[C@H](CC(C)C)NC(=O)[C@H](CCCCN)NC(=O)[C@H](CC(C)C)NC(=O)CNC(=O)[C@H](Cc2ccccc2)NC(=O)[C@@H](NC(=O)CNC(=O)[C@H](CCCCN)NC(=O)[C@H](CO)NC(=O)[C@H](CC(C)C)NC(=O)CNC(=O)[C@H](CCCCN)NC(=O)[C@H](CCCCN)NC(=O)[C@H](CC(N)=O)NC(=O)[C@H](C)NC(=O)CNC(=O)[C@H](CCCCN)NC(=O)[C@H](Cc2ccc(O)cc2)NC(=O)[C@H](CCCCN)NC(=O)[C@H](CCCNC(=N)N)NC(=O)[C@H](C)NC(=O)[C@H](CC(N)=O)NC(=O)[C@@H]2CCCN2C(=O)[C@H](Cc2c[nH]cn2)NC(=O)[C@H](CCC(=O)O)NC(=O)[C@H](CCC(N)=O)NC(=O)[C@@H](N)CC(C)C)CSSC[C@@H](C(=O)O)NC(=O)CNC(=O)[C@H](CC(C)C)NC(=O)CNC(=O)[C@H](CO)NC(=O)[C@H](CCSC)NC(=O)[C@H](CO)NC(=O)CNC1=O"}
{"assay": "ring opening", "test system": "aqueous Tris-HCl buffer", "conditions": "3.5 h, pH 7.4, without DTT", "endpoint": "degradation", "value": "49%", "Compound": "CCCCCCc1ccc(S(=O)(=O)N2CC2C(N)=O)cc1 (stereo not drawn)"}
{"test system": "mouse plasma", "conditions": "low concentration", "endpoint": "degradation half-life", "value": "11 h", "Compound": "C#CCN(CCCNC(=O)CCCCC[N+]1=C(/C=C/C2=C(Cl)C(=C/C=C3\\N(CCCCCC(=O)[O-])c4ccccc4C3(C)C)/CCC2)C(C)(C)c2ccccc21)CCCOc1ccc(Cl)cc1Cl"}
{"assay": "HPLC", "test system": "solution", "conditions": "1 mg/mL, 60 days, 25 °C", "endpoint": "degradation", "value": "15.4%", "Compound": "NC(=O)C[C@H](N)C(=O)N[C@@H](Cc1ccccc1)C(=O)N[C@@H](Cc1ccccc1)C(=O)O"}
{"assay": "UV-Vis", "test system": "PBS", "conditions": "0.02 mg/mL, 5 h, pH 7.4", "endpoint": "degradation", "value": "36.5 ± 3.06%", "Compound": "O=C(O[C@@H]1Cc2c(O)cc(O)cc2O[C@@H]1c1cc(O)c(O)c(O)c1)c1cc(O)c(O)c(O)c1"}
{"test system": "rat plasma", "conditions": "1.5 µM, 37 °C", "endpoint": "degradation rate constant", "value": "7.61 ± 0.5 min⁻¹", "Compound": "CCOC(=O)CCC(=O)Oc1ccc(/C=C/C(=O)/C=C(O)/C=C/c2ccc(OC(=O)CCC(=O)OCC)c(OC)c2)cc1OC"}
{"assay": "HPLC", "test system": "phosphate buffer", "conditions": "1 day, pH 7, 37 °C", "endpoint": "degradation", "value": "> 50%", "Compound": "CC(=O)Oc1ccccc1C(=O)[O][Pt]([NH2])([NH2])([Cl])([Cl])[O]C(=O)C(Cl)Cl"}
{"note": "Repeated from above:"}
{"test system": "rat liver homogenate 30%", "conditions": "15 min, 37 °C", "endpoint": "degradation", "value": "≤ 44.9%", "Compound": "COc1c2c(cc3oc(C)cc(=O)c13)OC(C(C)(C)O)C2 (stereo not drawn)"}
{"assay": "HPLC", "test system": "human serum", "endpoint": "degradation time", "value": "≤ 2 h", "Compound": "CC(C)C[C@H](NC(=O)[C@@H](NC(=O)[C@H](CCCCN)NC(=O)[C@@H](Cc1c[nH]c2ccccc12)NC(=O)[C@H](Cc1ccccc1)NC(=O)[C@H](CSCC(N)=O)NC(=O)CNC(=O)[C@@H](N)Cc1ccccc1)[C@@H](C)O)C(=O)O"}
